Measurements of several laboratories.
Protocols differ between the studies behind these lines. Several values in a cell are separate wells, animals, samples, runs or records. ± gives the spread as reported.
UniProt Q05513, sequence (whole entry, looked up): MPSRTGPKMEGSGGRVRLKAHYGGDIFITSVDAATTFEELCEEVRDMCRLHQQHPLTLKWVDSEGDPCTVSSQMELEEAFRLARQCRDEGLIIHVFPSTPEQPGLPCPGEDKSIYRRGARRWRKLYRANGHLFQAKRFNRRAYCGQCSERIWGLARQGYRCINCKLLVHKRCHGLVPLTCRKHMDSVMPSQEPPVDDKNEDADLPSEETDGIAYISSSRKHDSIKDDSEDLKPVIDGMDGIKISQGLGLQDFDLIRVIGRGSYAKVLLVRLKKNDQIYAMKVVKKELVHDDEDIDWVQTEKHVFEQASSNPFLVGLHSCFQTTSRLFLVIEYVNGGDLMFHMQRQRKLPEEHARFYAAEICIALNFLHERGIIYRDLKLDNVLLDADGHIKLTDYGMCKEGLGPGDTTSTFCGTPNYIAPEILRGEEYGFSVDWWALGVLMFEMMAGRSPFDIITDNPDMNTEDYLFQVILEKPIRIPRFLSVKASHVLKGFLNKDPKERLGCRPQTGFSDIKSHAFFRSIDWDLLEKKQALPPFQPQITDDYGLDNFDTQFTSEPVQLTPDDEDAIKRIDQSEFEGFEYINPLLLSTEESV
UniProt P29371, sequence (whole entry, looked up): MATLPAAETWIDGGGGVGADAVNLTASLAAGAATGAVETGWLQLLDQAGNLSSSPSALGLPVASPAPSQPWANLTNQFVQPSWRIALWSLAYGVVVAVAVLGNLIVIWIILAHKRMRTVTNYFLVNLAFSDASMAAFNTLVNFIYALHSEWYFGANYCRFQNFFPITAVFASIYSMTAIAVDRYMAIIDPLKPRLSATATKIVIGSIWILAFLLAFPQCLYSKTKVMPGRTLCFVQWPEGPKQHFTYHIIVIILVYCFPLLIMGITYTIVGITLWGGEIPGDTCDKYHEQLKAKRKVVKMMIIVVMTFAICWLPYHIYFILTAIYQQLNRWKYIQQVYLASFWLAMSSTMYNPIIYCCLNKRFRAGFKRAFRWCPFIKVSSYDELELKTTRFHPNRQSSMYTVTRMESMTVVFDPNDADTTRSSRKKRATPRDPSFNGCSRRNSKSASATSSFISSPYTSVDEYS
UniProt P51955, sequence (whole entry, looked up): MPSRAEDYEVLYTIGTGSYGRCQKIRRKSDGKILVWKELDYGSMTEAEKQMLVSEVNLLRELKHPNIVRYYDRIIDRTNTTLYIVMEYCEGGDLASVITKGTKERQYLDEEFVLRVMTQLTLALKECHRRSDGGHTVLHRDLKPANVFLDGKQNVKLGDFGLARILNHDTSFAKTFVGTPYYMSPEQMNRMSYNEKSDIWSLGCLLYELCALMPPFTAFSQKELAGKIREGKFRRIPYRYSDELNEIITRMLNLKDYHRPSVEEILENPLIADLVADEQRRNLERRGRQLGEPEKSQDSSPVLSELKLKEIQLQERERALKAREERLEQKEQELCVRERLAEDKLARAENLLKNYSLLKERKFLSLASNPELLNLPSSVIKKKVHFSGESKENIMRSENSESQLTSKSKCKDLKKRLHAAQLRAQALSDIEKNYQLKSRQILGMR
UniProt P48729, sequence (whole entry, looked up): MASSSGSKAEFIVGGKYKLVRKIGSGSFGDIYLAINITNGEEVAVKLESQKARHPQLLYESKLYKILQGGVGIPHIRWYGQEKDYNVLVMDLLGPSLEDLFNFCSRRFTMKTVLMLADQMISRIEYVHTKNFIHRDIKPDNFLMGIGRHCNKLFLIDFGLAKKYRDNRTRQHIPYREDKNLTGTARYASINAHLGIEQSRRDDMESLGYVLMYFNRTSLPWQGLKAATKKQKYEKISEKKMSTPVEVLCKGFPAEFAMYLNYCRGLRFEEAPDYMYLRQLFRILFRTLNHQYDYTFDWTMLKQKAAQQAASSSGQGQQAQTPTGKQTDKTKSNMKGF

| SMILES | target or system | assay | test system | conditions | how to read | endpoint | value |
| --- | --- | --- | --- | --- | --- | --- | --- |
| Cc1ccccc1-c1ccc(-c2nc(-c3ccc(CN(C)CCCC(=O)O)c([18F])c3)no2)cc1C(F)(F)F |  |  | rat, muscle | 1 h |  | tracer uptake | 0.08 %ID/g |
| COc1ccccc1-c1n[nH]c2nc(N[C@H]3CC[C@H](NS(=O)(=O)CC(C)C)CC3)ncc12 |  | bead binding, competition bead pull-down, measured: LINJ.22.0350 | Leishmania donovani extract | 10 µM | reference: vehicle | relative abundance | 0.95 |
| C/C(=N\OCCCN1CCCCC1)c1ccc(C(F)(F)F)cc1 |  |  | C57BL/6 mouse, plasma | intravenous, 5 mg/kg, 0.5 h |  | plasma concentration | 280 ± 12.3 ng/mL |
| N#[11C]c1ccc(-c2csc(NN=C3CCCC3)n2)cc1 |  |  | C57BL/6 mice, male, thymus | intravenous, 3 MBq, 60 min |  | radioactivity uptake | 0.6 ± 0.36 %ID/g |
| CCCC[C@H]1C(=O)N(C)[C@@H](CCCC)C(=O)N[C@@H](CCCNC(=O)CN2CCN(CC(=O)O)CCN(CC(=O)O)CCN(CC(=O)O)CC2)C(=O)N[C@H](C(=O)NCC(N)=O)CSCC(=O)N[C@@H](Cc2ccc(O)cc2)C(=O)N(C)[C@@H](C)C(=O)N[C@@H](CC(N)=O)C(=O)N2CCC[C@H]2C(=O)N[C@@H](Cc2c[nH]cn2)C(=O)N[C@@H](CC(C)C)C(=O)N(C)CC(=O)N[C@@H](Cc2c[nH]c3ccccc23)C(=O)N[C@@H](CO)C(=O)N[C@@H](Cc2c[nH]c3ccccc23)C(=O)N1C [gallium-68 labelled] |  |  | NOD/SCID mice with CHO-hPD-L1 xenograft, liver | 60 min post injection |  | tissue uptake | 12.6 ± 1.06 %ID/g |
| CSCC[C@H](N)C(=O)N[C@@H](C)C(=O)N[C@@H](Cc1c[nH]c2ccccc12)C(=O)N[C@@H](Cc1c[nH]cn1)C(=O)N[C@@H](CC(=O)O)C(=O)N[C@@H](CC(=O)O)C(=O)N[C@@H](CCC(=O)O)C(=O)N[C@@H](CCC(=O)O)C(=O)N[C@@H](Cc1ccccc1)C(=O)N[C@@H](C)C(=O)N[C@@H](CCCNC(=N)N)C(=O)N[C@@H](CCCNC(=N)N)C(=O)N[C@@H](CCCNC(=N)N)C(=O)N[C@@H](CCCNC(=N)N)C(=O)NCCCCCC(=O)NCCCCC(NC(=O)CCCCCNC(=O)[C@H](CCCNC(=N)N)NC(=O)[C@H](CCCNC(=N)N)NC(=O)[C@H](CCCNC(=N)N)NC(=O)[C@H](CCCNC(=N)N)NC(=O)[C@H](C)NC(=O)[C@H](Cc1ccccc1)NC(=O)[C@H](CCC(=O)O)NC(=O)[C@H](CCC(=O)O)NC(=O)[C@H](CC(=O)O)NC(=O)[C@H](CC(=O)O)NC(=O)[C@H](Cc1c[nH]cn1)NC(=O)[C@H](Cc1c[nH]c2ccccc12)NC(=O)[C@H](C)NC(=O)[C@@H](N)CCSC)C(=O)NCCCCC(NC(=O)C(CCCCNC(=O)CCCCCNC(=O)[C@H](CCCNC(=N)N)NC(=O)[C@H](CCCNC(=N)N)NC(=O)[C@H](CCCNC(=N)N)NC(=O)[C@H](CCCNC(=N)N)NC(=O)[C@H](C)NC(=O)[C@H](Cc1ccccc1)NC(=O)[C@H](CCC(=O)O)NC(=O)[C@H](CCC(=O)O)NC(=O)[C@H](CC(=O)O)NC(=O)[C@H](CC(=O)O)NC(=O)[C@H](Cc1c[nH]cn1)NC(=O)[C@H](Cc1c[nH]c2ccccc12)NC(=O)[C@H](C)NC(=O)[C@@H](N)CCSC)NC(=O)CCCCCNC(=O)[C@H](CCCNC(=N)N)NC(=O)[C@H](CCCNC(=N)N)NC(=O)[C@H](CCCNC(=N)N)NC(=O)[C@H](CCCNC(=N)N)NC(=O)[C@H](C)NC(=O)[C@H](Cc1ccccc1)NC(=O)[C@H](CCC(=O)O)NC(=O)[C@H](CCC(=O)O)NC(=O)[C@H](CC(=O)O)NC(=O)[C@H](CC(=O)O)NC(=O)[C@H](Cc1c[nH]cn1)NC(=O)[C@H](Cc1c[nH]c2ccccc12)NC(=O)[C@H](C)NC(=O)[C@@H](N)CCSC)C(N)=O (stereo partly shown) |  |  | mouse C57BL/6 female, spine | 3 h, radioiodinated peptide | reference: total radioactivity | tissue distribution | 7.37% and 6.12% |
| CN1Cc2cc(Cl)ccc2-n2c(nnc2C2CCN(c3cccc([18F])n3)CC2)C1 |  | PET two-tissue compartment model | rhesus monkey, thalamus | intravenous, dose not given, 80 min scan, baseline scan |  | total volume of distribution | 1.11 ± 0.32 mL/cm3 |
| O=C(c1cc(Cc2n[nH]c(=O)c3ccccc23)ccc1F)N1CC(CNC2CC2)C1 |  |  | female ICR mouse, plasma | intravenous, 20 mg/kg |  | plasma clearance | 101 mL/min/kg |
| CC[C@H](C)[C@H](NC(=O)[C@H](CO)NC(=O)[C@H](Cc1ccc(O)cc1)NC(=O)[C@H](Cc1ccc(O)cc1)NC(=O)[C@H](CC(N)=O)NC(=O)CNC(=O)[C@H](CO)NC(=O)[C@H](Cc1ccc(O)cc1)NC(=O)[C@H](CO)NC(=O)[C@H](CO)NC(=O)[C@H](CC(N)=O)NC(=O)COCCOCCNC(=O)CN1CCN(CC(=O)O)CCN(CC(=O)O)CCN(CC(=O)O)CC1)C(=O)N[C@@H](CC(C)C)C(N)=O [copper-64 labelled] |  | dynamic PET | KPC mouse Ptf1a-CreER tdTomato, metastases | intravenous, 4.6 MBq/mouse, 22.5 min, 84 d after tamoxifen |  | tissue uptake | 13.4 %ID/mL |
| CN1CCCCC1C(=O)NC(Cc1ccc(-c2ccccc2)cc1)B(O)O (stereo not shown) |  |  | rat, plasma | intravenous, 1 mg/kg |  | clearance | 23.3 mL/min/kg |
| CS(C)(=O)=Nc1ccc(-c2ccc(-c3nc4cc(O[C@@H]5CO[C@H]6[C@@H]5OC[C@H]6O)[nH]c4cc3F)cc2)cc1 | Neuromedin-K receptor (TACR3, Homo sapiens, UniProt P29371) | calcium signal, antagonist |  | 10 µM |  | inhibition | 69% |
| COc1ccccc1-c1n[nH]c2nc(NC3CCN(C(=O)Cc4ccc(F)cc4F)CC3)ncc12 |  | bead binding, competition bead pull-down, measured: LINJ.28.2700 | Leishmania donovani extract | 10 µM | reference: vehicle | relative abundance | 1.1 |
| C#Cc1c(F)ccc2cc(O)cc(-c3ncc4c(N5CC6CCC(C5)N6C(=O)OC(C)OC(=O)CC56CC7CC(CC(C7)C5)C6)nc(OC[C@@]56CCCN5C[C@H](F)C6)nc4c3F)c12 (stereo partly shown) |  | chemical stability | simulated intestinal fluid | 1 µM, 30 min |  | compound remaining | 80% |
| O=C1NC2(CC2)COc2ncc(F)cc2[C@H]2COCCN2c2ccn3ncc1c3n2 |  |  | Sprague-Dawley rat, female, ovaries | oral, 2.5 mg/kg/day, 4 weeks, end of treatment |  | organ-to-brain weight ratio | 5.69 ± 0.75% |
| CCOP(=O)([O-])CNC(=O)CN1CCN(CC(=O)NCP(=O)([O-])OCC)CCN(CC(=O)NCP(=O)([O-])OCC)CCN(CC(=O)NCP(=O)([O-])OCC)CC1.[177Lu+3] |  |  | Sprague-Dawley rat, bone | intravenous, dose not given, 2 h |  | biodistribution | 0.036 ± 0.027 % injected dose/organ |
| CN(C)[C@H]1C[C@@]23CC[C@@]4(O2)C(=CC[C@]2(C)[C@@H](c5ccc6ccncc6c5)CC[C@H]24)C=C3[C@@H](O)[C@@H]1O | Serine/threonine-protein kinase Nek2 (NEK2, Homo sapiens, UniProt P51955) | ATP probe labelling, inhibitor, KiNativ profiling |  | 0.1 µM |  | inhibition | 14% |
| CC(C)(C)C(=O)OCOP(=O)(OCOC(=O)C(C)(C)C)C1CCCN(O)C1=O (stereo not shown) | EKVX |  |  |  |  | log GI50 | -6.18 log M |
| CC(C)[C@@H]1NC(=O)CNC(=O)[C@H](CC(N)=O)NC(=O)[C@H](CCCNC(=N)N)NC(=O)[C@H](Cc2ccc(O)cc2)NC(=O)[C@H](C(C)C)NC(=O)[C@@H](NC(=O)[C@@H](NC(=O)[C@H](CC(N)=O)NC(=O)[C@H](Cc2c[nH]c3ccccc23)NC(=O)[C@H](C)NC(=O)[C@H](Cc2ccccc2)NC(=O)CNC(=O)[C@H](CCCCN)NC(=O)[C@H](Cc2ccccc2)NC(=O)[C@H](Cc2ccccc2)NC(=O)[C@H](CCCCN)NC(=O)OCC2c3ccccc3-c3ccccc32)C(C)C)CSSC[C@@H](C(=O)N[C@@H](Cc2c[nH]cn2)C(=O)N[C@@H](CCCNC(=N)N)C(=O)N[C@@H](CCCNC(=N)N)C(=O)N[C@@H](C)C(=O)N[C@@H](CC(N)=O)C(N)=O)NC(=O)[C@H](C(C)C)NC(=O)[C@H](CCCNC(=N)N)NC1=O |  |  | ICR mouse, serum | ip, 10 mg/kg, 3 d dosing, blood day 5 |  | blood urea nitrogen | 10.5 ± 0.47 mmol/L |
| CC[C@H](C)[C@H](NC(=O)[C@H](CCCCN)NC(=O)CNC(=O)[C@H](CC(C)C)NC(=O)[C@H](Cc1ccccc1)NC(=O)[C@H](CCCCN)NC(=O)[C@H](CO)NC(=O)[C@H](Cc1ccccc1)NC(=O)[C@H](Cc1c[nH]c2ccccc12)NC(=O)[C@H](CCC(N)=O)NC(=O)[C@@H](NC(=O)[C@H](Cc1ccccc1)NC(=O)CCCCCNC(=O)CN1CCN(CC(=O)O)CCN(CC(=O)O)CCN(CC(=O)O)CC1)C(C)C)C(=O)N[C@@H](CCC(=O)O)C(=O)N1CCC[C@H]1C(=O)N[C@@H](CC(=O)O)C(=O)N[C@H](C(=O)N[C@@H](CO)C(=O)N[C@@H](CCC(N)=O)C(=O)N[C@H](C(=O)N[C@@H](CCC(N)=O)C(=O)N[C@@H](CC(=O)O)C(=O)N1CCC[C@H]1C(=O)N[C@@H](CC(N)=O)C(=O)N[C@@H](CC(=O)O)C(=O)N[C@@H](CCC(N)=O)C(=O)N[C@@H](Cc1ccc(O)cc1)C(=O)N[C@@H](CCC(=O)O)C(=O)N1CCC[C@H]1C(=O)N[C@@H](Cc1ccccc1)C(=O)O)C(C)C)C(C)C [copper-64 labelled] |  |  | C57BL/6 mice, kidneys | with: LPS 0.1 mg/kg intratracheal |  | tissue uptake | 20.3 ± 4.2 %ID/g |
| [2H]C([2H])([18F])[C@]([2H])(N)C(=O)O |  | PET | athymic nude mice, U-87 MG | dose not given, 60 min post-injection | reference: tumour over muscle | tumour-to-muscle ratio | 1.23 ± 0.23 |
| COc1cnc2cccc(N3CCc4c(cc(Cn5ccnc5)cc4-c4cn(C)nc4C(F)(F)F)C3=O)c2c1 |  |  | BALB/c nude mice, MV4-11 xenograft | intraperitoneal, 100 mg/kg, day 31 |  | body weight | 22.7 g and 24.6 g and 24.1 g and 23.4 g |
| CSCC[C@@H]1NC(=O)[C@H](C(C)C)NC(=O)[C@H](CCCNC(=N)N)NC(=O)[C@@H]2CCCN2C(=O)CNC(=O)[C@@H](NC(=O)CNC(=O)[C@H](CO)NC(=O)CNC(=O)[C@H](CO)NC(=S)Nc2ccc(C[C@H]3CN(CC(=O)O)CCN(CC(=O)O)CCN3CC(=O)O)cc2)CSSC[C@@H](C(N)=O)NC(=O)[C@@H]2CCCN2C(=O)CNC(=O)[C@H](CCC(=O)O)NC(=O)[C@H](CC(=O)O)NC(=O)[C@H](CC(=O)O)NC(=O)CNC(=O)[C@H](CC(C)C)NC(=O)[C@H](Cc2c[nH]cn2)NC(=O)[C@H](CC(C)C)NC(=O)CNC(=O)[C@H](Cc2c[nH]cn2)NC1=O [copper-64 labelled] |  | dynamic PET | CD rat, myocardial infarction, left ventricular blood pool | intravenous, 18.5 MBq |  | blood elimination half-life | 21.9 ± 2.4 min |
| O=C1NC(=O)c2c1c1cc(F)c[n+]3c1c1c2c2cc(O)ccc2[n]1[Ru-4]312([N]=C=S)[S+]3CC[S+]1CC[S+]2CC3 (stereo not shown) | Protein kinase C zeta type (PRKCZ, Homo sapiens, UniProt Q05513) | enzyme activity |  | 100 nM, human enzyme, with: 10 µM ATP | reference: untreated | remaining activity | 88% |
| CC(C)[C@H]1NC(=O)C[C@H]2/C=C/CCSSC[C@@H](NC1=O)C(=O)N[C@H](Cc1cccc3ccccc13)C(=O)NCC(=O)O2 | Casein kinase I isoform alpha (CSNK1A1, Homo sapiens, UniProt P48729) | enzyme activity, inhibitor |  | 10 µM |  | inhibition | 15.4% |
| C=C/C=C/C[C@@H](C)[C@@H](O)[C@H]1C(=O)N[C@@H](CC)C(=O)N(C)CC(=O)N(C)[C@@H](CC(C)C)C(=O)N[C@@H](C(C)C)C(=O)N(C)[C@@H](CC(C)C)C(=O)N[C@@H](C)C(=O)N[C@H](C)C(=O)N(C)[C@@H](CC(C)C)C(=O)N(C)[C@@H](CC(C)C)C(=O)N(C)[C@@H](C(C)C)C(=O)N1C |  |  | Wistar Kyoto rat, male, plasma | ip, 0.5 mg/kg/day, day 18 |  | plasma K+ level | 5.2 ± 0.2 mmol/L |
